Experimental data of several laboratories.
Compare with care: the assays were run in different laboratories.
Target: Serine/threonine-protein kinase LATS2 (LATS2, Homo sapiens, UniProt Q9NRM7)
Residues used in one study (Q9NRM7 1-1088): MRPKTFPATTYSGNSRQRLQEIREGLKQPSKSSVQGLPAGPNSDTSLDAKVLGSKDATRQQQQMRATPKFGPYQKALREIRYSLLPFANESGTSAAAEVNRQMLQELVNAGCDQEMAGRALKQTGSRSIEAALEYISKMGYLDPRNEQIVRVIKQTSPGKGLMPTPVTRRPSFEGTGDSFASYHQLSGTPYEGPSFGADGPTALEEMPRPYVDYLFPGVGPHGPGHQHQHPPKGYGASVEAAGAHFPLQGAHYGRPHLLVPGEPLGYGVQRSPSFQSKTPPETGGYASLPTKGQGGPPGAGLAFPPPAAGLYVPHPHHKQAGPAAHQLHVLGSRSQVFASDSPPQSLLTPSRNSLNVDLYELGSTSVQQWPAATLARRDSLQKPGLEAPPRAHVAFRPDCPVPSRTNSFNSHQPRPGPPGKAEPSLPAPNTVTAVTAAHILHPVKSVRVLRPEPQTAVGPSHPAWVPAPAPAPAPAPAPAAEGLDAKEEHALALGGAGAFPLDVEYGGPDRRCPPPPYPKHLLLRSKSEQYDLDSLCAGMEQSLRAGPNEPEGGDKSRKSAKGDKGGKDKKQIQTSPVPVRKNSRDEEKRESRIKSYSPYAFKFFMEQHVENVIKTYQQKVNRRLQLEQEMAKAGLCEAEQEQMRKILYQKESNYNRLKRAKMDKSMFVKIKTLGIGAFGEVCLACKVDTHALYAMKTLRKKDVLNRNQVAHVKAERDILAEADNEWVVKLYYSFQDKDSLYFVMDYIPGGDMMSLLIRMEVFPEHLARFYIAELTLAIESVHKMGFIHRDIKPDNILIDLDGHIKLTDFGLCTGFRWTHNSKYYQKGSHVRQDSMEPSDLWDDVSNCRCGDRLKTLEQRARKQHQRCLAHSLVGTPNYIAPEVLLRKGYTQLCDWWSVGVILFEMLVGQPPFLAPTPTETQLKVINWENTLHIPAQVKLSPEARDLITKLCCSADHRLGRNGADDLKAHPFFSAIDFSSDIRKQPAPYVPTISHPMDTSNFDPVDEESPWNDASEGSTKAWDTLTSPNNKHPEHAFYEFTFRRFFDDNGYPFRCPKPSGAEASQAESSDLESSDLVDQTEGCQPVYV

SMILES | assay | test system | setting | how to read | quantity | value
Cc1cccc(O[C@H]2CCC[C@@H](C(C)CNCc3ccncc3)C2)c1 (relative stereo) | kinase activity, kinome panel screening | – | 1 µM | – | inhibition | 1%
Cc1cnc2nc1Nc1cccc(c1)COC/C=C/COCc1cc(ccc1OCCN1CCOCC1)N2 | – | – | concentration not given | – | percent of control | 96%
CCN1CCN(Cc2ccc(C(=O)Nc3ccc(C)c(NCc4cnc5[nH]ccc5c4OC)c3)cc2C(F)(F)F)CC1 | binding, competition with immobilised ligand | – | 1 µM | – | remaining binding | 100%
COc1cc(Nc2nccc(-c3cnn4nc(OC)ccc34)n2)cc(C(F)(F)F)c1 | binding, competition with immobilised ligand | – | 1 µM | – | remaining binding | 96%
Cc1ccc(-c2c(/C=C(\C#N)C(=O)NC(C)C)n(CCCO)c3ncnc(N)c23)cc1 | cell-free assay, competition with immobilised ligand | – | 1 µM | – | remaining binding | 100%
NC(=O)C[C@H]1CCc2sc3ncnc(O[C@H]4CC[C@H](N5CCOCC5)CC4)c3c21 | enzyme activity, inhibitor | – | 10 µM | – | inhibition | 12%
CN1CCN(Cc2ccc(-c3ccc(CO[C@H]4CCC[C@@H]4NC(=O)c4cc(-c5cnn(C)c5)cnc4N)cc3)cc2)CC1 | enzyme activity, inhibitor | – | 0.1 µM | – | inhibition | 7%
O=C(Cc1ccc(OCc2ccccc2)cc1)NC1(C(=O)O)CCN(C(=O)c2ccc(-c3cccc(Cl)c3)cc2)CC1 | enzyme activity, inhibitor | – | 10 µM | – | activity vs control | 117%
CS(=O)(=O)Nc1cccc(-c2csc3cnc(Nc4ccc(N5CCN(CCCCCOc6cccc7c6C(=O)N(C6CCC(=O)NC6=O)C7=O)CC5)cc4)nc23)c1 (stereo not drawn) | probe labelling, inhibitor, KiNativ chemoproteomics | MOLT-4 | 1 µM | – | inhibition | 21.1%
C=CC(=O)Nc1cccc(-c2cnc3[nH]cc(C(=O)NC(C)(C)C)c3n2)c1 | enzyme activity, inhibitor | – | 0.1 µM | – | inhibition | 5%
Nc1ncc2c(n1)-c1c([nH]c3ccc(C4=CCOCC4)cc13)CCC2 | binding, competition with immobilised ligand | – | 1 µM | – | remaining binding | 77%
CNC1C[S+]2CC[S+]3CC[S+](C1)[Ru-4]321([N]=C=S)[n]2c3ccc(OC)cc3c3c4c(c5cc(F)c[n+]1c5c32)C(=O)NC4=O (stereo not drawn) | KinomeScan | – | 0.1 µM | baseline: untreated | remaining binding | 90%

Repeated from above:
SMILES | assay | test system | setting | how to read | quantity | value
CN1CCN(Cc2ccc(-c3ccc(CO[C@H]4CCC[C@@H]4NC(=O)c4cc(-c5cnn(C)c5)cnc4N)cc3)cc2)CC1 | enzyme activity, inhibitor | – | 0.1 µM | – | inhibition | 7%
O=C(Cc1ccc(OCc2ccccc2)cc1)NC1(C(=O)O)CCN(C(=O)c2ccc(-c3cccc(Cl)c3)cc2)CC1 | enzyme activity, inhibitor | – | 10 µM | – | activity vs control | 117%
